# Results of several laboratories.
# Compare with care: the assays were run in different laboratories. pEC50, pIC50: −log10 of the molar value.
# Cell line: HL-60
Structure (SMILES),test,setting,how to read,measurement,value
CC1CCC2C(C)C(OC(=O)CCC(=O)N(CCCc3cn(-c4ccc(C#N)cc4)nn3)CCNc3ccnc4cc(Cl)ccc34)OC3OC4(C)CCC1C32OO4 (stereo not shown),"cell growth or viability, resazurin","10 µM, 48 h",,inhibition,65.4%
CC(=C(c1ccc(O)cc1)c1ccc(Cl)cc1)c1ccc(Cl)cc1,"cell growth or viability, SRB",,,GI50,0.64 µM
F[P-](F)(F)(F)(F)F.F[P-](F)(F)(F)(F)F.[Ru+2].c1ccc(-c2ccccn2)nc1.c1ccc(-c2ccccn2)nc1.c1csc(-c2ccc(-c3ccc(-c4cc5cccnc5c5ncccc45)s3)s2)c1,cell viability,red light 625 nm,reference: dark EC50 over light EC50,phototherapeutic index,76
CC[C@H](C)[C@H](NC(=O)[C@H](CCCNC(=N)N)NC(=O)[C@H](CCCNC(=N)N)NC(=O)[C@H](CC(C)C)NC(=O)[C@H](Cc1c[nH]c2ccccc12)NC(=O)[C@H](CCCCN)NC(=O)[C@H](CCCNC(=N)N)NC(=O)[C@H](CCCCN)NC(=O)[C@H](CCCNC(=N)N)NC(=O)[C@H](CCCNC(=N)N)NC(=O)CN)C(=O)NCC(=O)N[C@@H](CCCCN)C(=O)NCC(=O)N[C@H](C(=O)N[C@@H](CCCCN)C(=O)N[C@H](C(=O)N[C@H](C(=O)NCC(=O)NCC(=O)N[C@@H](C)C(=O)N[C@@H](C)C(=O)N[C@@H](CC(C)C)C(=O)N[C@@H](CC(=O)O)C(=O)N[C@@H](Cc1c[nH]cn1)C(=O)N[C@@H](CC(C)C)C(N)=O)[C@@H](C)CC)[C@@H](C)CC)C(C)C,,"32 µg/mL, 5 min",,lysed cells,30%
CC1=CCC23OC2(C)CCC2C(C[N+](C)(C)C)C(=O)OC2C13.[I-] (stereo not shown),"cell growth or viability, SRB",8.3 µM,,inhibition,80.3%
CC12CCC3(CCC(=O)OCCNc4ccnc5cc(Cl)ccc45)C(C)(OOC3(C)O1)O2,"cell growth or viability, resazurin","10 µM, 48 h",,inhibition,9.9%
F[P-](F)(F)(F)(F)F.F[P-](F)(F)(F)(F)F.[Ru+2].c1ccc(-c2ccccn2)nc1.c1ccc(-c2ccccn2)nc1.c1csc(-c2cc3cccnc3c3ncccc23)c1,"cell growth or viability, resazurin",dark,,pEC50,< 3.52
CN(C)CC1C(=O)OC2C1CCC1(C)CC1CCC1(C)OC21 (stereo not shown),"cell growth or viability, resazurin",,,pIC50,5.19
C#CCCCN(CCNc1ccnc2cc(Cl)ccc12)C(=O)CCC(=O)O[C@@H]1O[C@@H]2O[C@@]3(C)CC[C@H]4[C@H](C)CCC([C@H]1C)[C@@]24OO3 (stereo partly shown),"cell growth or viability, resazurin","10 µM, 48 h",,inhibition,62.8%
CC(Cc1ccc(Cl)cc1)=C(c1ccc(Cl)cc1)c1ccc(OCCN(C)C)cc1,"cell growth or viability, SRB",,,GI50,3.89 µM
